# Assay results gathered from unrelated publications.
# Parts stem from different laboratories: compare values within a part only. Substitutions count along the parent as printed.
# Sequence of UniProt Q14289 (whole entry, looked up): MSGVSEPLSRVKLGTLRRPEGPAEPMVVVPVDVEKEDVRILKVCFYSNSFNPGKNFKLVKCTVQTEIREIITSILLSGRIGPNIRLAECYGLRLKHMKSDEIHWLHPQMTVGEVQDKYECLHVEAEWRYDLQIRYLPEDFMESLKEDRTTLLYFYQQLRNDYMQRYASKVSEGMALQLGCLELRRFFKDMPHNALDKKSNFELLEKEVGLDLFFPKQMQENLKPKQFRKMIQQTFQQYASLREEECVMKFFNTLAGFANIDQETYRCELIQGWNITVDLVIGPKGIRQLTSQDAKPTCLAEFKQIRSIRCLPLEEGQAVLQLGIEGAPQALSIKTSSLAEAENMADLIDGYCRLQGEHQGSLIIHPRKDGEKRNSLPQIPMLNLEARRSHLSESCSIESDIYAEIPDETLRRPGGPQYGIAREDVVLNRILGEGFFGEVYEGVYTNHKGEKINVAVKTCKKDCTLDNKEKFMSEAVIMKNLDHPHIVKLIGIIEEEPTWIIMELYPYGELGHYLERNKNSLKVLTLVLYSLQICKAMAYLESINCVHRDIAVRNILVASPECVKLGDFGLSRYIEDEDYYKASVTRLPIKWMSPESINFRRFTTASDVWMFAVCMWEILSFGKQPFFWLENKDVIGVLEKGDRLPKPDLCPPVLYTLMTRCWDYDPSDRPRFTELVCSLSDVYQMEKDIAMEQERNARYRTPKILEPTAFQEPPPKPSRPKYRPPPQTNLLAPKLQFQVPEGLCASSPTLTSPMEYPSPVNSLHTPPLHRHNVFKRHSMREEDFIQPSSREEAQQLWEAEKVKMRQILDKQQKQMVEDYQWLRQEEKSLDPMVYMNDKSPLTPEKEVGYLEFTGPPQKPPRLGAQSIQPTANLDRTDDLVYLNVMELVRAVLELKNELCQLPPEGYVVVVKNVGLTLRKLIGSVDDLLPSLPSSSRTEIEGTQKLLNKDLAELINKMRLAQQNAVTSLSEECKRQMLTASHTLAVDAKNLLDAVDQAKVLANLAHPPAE
# Sequence of UniProt P50613 (whole entry, looked up): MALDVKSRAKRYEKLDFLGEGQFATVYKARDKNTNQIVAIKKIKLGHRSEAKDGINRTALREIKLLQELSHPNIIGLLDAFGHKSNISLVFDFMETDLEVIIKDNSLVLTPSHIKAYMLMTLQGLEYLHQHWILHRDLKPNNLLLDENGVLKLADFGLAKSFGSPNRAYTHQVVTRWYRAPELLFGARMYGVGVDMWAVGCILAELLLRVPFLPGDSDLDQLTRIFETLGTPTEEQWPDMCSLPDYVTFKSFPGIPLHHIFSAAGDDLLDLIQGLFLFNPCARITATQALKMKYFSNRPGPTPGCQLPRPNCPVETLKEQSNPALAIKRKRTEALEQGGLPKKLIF
# Sequence of UniProt Q9H2G2 (whole entry, looked up): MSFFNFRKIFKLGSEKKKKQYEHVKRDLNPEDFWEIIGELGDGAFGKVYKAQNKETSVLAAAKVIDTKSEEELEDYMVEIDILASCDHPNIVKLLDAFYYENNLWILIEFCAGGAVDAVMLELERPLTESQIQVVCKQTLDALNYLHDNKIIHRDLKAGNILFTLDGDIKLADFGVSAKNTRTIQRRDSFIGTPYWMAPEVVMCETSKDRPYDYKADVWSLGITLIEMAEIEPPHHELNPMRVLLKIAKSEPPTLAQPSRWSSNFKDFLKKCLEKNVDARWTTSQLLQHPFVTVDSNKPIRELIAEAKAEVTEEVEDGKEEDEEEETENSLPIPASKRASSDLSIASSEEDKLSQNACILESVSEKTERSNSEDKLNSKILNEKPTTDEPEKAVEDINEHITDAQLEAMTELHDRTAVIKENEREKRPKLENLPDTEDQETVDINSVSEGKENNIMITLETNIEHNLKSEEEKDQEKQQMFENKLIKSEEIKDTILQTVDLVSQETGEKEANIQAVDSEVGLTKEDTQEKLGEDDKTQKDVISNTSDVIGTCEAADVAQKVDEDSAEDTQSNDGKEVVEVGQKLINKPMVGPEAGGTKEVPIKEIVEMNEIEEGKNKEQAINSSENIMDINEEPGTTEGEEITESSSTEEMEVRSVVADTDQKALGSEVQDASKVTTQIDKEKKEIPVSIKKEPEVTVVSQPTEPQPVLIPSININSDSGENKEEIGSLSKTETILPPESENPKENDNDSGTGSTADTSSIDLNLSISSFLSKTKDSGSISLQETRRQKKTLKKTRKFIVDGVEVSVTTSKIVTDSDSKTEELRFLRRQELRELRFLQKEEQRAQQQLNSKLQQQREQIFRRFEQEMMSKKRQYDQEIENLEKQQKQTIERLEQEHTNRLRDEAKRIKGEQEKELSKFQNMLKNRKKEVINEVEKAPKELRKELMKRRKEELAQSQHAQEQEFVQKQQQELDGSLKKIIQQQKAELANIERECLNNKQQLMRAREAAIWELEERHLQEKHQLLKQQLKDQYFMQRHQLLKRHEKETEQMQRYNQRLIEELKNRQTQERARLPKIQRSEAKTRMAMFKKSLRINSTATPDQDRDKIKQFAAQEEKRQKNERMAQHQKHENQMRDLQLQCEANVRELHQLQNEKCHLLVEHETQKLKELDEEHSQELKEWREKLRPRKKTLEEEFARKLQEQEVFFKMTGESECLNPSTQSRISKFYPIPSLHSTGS
# Sequence of UniProt P41279 (whole entry, looked up): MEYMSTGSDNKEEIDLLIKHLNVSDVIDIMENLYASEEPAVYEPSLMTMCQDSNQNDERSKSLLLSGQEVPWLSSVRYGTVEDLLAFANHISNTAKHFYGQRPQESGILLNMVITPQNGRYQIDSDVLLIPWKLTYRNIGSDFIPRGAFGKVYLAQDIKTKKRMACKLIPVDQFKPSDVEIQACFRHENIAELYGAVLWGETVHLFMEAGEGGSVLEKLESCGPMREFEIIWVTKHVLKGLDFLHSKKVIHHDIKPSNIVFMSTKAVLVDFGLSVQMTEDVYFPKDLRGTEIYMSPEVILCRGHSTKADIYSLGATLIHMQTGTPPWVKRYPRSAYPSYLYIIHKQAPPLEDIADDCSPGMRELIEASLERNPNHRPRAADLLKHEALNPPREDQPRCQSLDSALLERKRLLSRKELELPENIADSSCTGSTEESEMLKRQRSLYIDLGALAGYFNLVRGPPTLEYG
# Sequence of UniProt P34947 (whole entry, looked up): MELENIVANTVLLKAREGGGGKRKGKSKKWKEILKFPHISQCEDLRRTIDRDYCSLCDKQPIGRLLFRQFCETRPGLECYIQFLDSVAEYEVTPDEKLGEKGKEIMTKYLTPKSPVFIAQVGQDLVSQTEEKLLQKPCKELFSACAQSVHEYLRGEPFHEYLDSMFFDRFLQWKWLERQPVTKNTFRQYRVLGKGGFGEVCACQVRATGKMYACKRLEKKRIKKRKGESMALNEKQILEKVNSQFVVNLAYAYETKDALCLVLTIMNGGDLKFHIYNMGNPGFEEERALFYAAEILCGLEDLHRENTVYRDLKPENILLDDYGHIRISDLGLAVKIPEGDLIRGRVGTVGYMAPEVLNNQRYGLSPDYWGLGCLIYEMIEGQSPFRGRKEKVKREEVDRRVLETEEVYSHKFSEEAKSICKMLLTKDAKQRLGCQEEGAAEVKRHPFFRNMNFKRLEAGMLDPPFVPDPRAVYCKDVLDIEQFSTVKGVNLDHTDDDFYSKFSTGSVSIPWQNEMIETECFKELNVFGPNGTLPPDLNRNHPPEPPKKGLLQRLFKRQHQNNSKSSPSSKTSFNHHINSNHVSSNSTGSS
# Sequence of UniProt Q15139 (whole entry, looked up): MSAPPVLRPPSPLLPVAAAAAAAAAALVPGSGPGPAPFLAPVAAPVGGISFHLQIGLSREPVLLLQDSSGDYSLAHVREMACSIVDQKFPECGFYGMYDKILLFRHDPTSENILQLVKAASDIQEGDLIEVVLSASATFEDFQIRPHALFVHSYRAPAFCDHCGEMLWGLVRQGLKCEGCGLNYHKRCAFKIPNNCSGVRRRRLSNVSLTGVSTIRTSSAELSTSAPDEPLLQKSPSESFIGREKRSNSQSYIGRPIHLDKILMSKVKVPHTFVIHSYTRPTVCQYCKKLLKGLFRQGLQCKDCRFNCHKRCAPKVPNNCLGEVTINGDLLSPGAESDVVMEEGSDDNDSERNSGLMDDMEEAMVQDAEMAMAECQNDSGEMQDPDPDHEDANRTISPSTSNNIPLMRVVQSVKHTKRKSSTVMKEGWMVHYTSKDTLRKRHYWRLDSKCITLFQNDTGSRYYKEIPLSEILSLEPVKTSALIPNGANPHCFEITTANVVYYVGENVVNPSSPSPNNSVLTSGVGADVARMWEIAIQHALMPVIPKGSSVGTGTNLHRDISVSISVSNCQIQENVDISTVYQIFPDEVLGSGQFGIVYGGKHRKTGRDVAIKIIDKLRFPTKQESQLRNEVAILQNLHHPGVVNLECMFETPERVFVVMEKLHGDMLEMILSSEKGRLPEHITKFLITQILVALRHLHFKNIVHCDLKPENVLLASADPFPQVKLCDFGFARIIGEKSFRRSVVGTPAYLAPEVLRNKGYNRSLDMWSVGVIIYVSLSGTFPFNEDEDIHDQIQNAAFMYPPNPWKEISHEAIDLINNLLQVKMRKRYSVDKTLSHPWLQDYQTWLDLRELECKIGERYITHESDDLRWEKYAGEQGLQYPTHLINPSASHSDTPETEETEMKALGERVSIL
# Sequence of UniProt P53779 (whole entry, looked up): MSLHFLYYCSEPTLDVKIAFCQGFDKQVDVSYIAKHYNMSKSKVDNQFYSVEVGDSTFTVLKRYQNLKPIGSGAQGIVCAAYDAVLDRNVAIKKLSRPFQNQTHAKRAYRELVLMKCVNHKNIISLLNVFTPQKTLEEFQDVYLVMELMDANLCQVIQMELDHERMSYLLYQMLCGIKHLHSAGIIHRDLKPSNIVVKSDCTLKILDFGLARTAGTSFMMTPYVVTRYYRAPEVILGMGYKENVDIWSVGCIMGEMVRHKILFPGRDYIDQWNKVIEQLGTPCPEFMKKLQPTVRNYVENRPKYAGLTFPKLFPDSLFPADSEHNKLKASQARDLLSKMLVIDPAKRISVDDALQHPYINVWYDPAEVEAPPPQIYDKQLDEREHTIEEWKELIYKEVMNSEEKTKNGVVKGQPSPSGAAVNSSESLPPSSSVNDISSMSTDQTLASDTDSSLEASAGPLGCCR

# Study 1 — target: CCNA1, cyclin fold, Cln2 fusion (human); technique: yeast growth competition, sequencing; matrix: yeast; setting: weak parent motif; baseline: not given; reading: higher = stronger binding
# Starting sequence: SAMHD1 docking peptide (human); ASKSRVQLFKDDP
Change,normalised enrichment score
ASKSRVQVFKDDP [L8V],0.163
ASKKRVQLFKDDP [S4K],-0.0489
ASKSRVDLFKDDP [Q7D],-0.158
ASKSRVQWFKDDP [L8W],0.123
ADKSRVQLFKDDP [S2D],0.513
ASVSRVQLFKDDP [K3V],0.287
ASKSRVQLNKDDP [F9N],0.0637
ASPSRVQLFKDDP [K3P],-0.337

# Study 2 — technique: RNA Bind-n-Seq; molecule type: RNA; matrix: in vitro; concentration: 365 nM; baseline: no-protein control; reading: higher = stronger binding
# Target: RNA binding protein fox-1 homolog 2, RRM domain, GST-SBP tag (RBFOX2, Homo sapiens, UniProt O43251-10, residues 100-194)
# Setting: natural RNA segment, single round, ends assumed
# Target sequence (chain): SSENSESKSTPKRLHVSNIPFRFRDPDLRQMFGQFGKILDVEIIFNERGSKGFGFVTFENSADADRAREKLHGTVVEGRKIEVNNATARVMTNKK
Oligonucleotide,RBNS enrichment (R)
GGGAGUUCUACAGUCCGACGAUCCCCGGUGCUGGGCCUGGCCGAGGGGCGGAGGCACAGCUGCUUCCAGCAGCCAGCAUUCAGUGGCCUUGUCACCAAGCUCCACACCUCCUCCUGGUGCUGGCUUUGGUGACUGGAAUUCUCGGGUGCCAA,0.319
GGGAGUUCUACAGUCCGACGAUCUCAUCGGGCUGGGCAGGAAGCGUCCCUGAUUGCGUGCUCCACUUCUCCCUCUCAGGAAGCCCAGUUUCAUCCUUAGUACCCCCCCUCGUGCCCGCUGUCGGCUGGUUAUAUGGAAUUCUCGGGUGCCAA,0.568
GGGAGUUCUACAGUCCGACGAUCUGUGCUUGGAUGCUUUUUAUAAGAGUUGUCAUUGUUGGAAAUUCUUAAAUAAAACUGAUUUAAAUAAUAUGUGUCUUUGUUUUGCAGCCCUGAAUGCAAAGAAUUCAUAGUGGAAUUCUCGGGUGCCAA,15.4
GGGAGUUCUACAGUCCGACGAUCGUCGUGGGACUUCAGGCCACAUUGGCUUGAAGGCAUUCGUUUCCUUCUGGGGUGGGGACAGGCCCUCAUGGCAGGCUUGUUCCCGUGGCUCUGAGCGAGGCCUCUUCCUGUGGAAUUCUCGGGUGCCAA,0.283
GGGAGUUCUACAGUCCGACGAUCAGGUAGCUCUUGAAGGUGAUAGCCAUCUACUUUCCAGUGGCUGCCAACCACAGGGAGUGCCAGUUAACACUGGAAGGAUUAAGGCAAGGUCCCUUCUCUUGAGACUCCCCUGGAAUUCUCGGGUGCCAA,0.287
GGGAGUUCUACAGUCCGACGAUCCAGGGCCCCUGGGGAUCUUGCCCCCUUUGACCUUCCCCAAAGGAUGGUCACACACCAGCACUUUAUACACUUCUGGCUCACAGGAAAGUGUCUGCAGUAGGGGACCCAGAUGGAAUUCUCGGGUGCCAA,0.325
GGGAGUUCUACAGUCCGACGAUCAGUGAGGCAGCUAGUUCUUCCUAUUCCAUUCUCGACCAACCUGCCCUUUCUUAAUAUGACUAGUGGUCUUGAUGCUAGAGUCAACUUACUCUGUUGCUGGCUUUAGCAGAUGGAAUUCUCGGGUGCCAA,0.275
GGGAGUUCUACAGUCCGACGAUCGCUGAAUUUAUAUUUGUAAAUUUAUUUUGCCAUCUUUAAGUCACAUUUUUGUUUCAUUGUUUAAAAGUACUGAAAUGUUCCACCCUGUUAUGUUUUCCUGUACUAGAUGGUGGAAUUCUCGGGUGCCAA,1.2

# Study 3 — technique: protein-binding microarray; molecule type: double-stranded DNA, one strand shown; matrix: in vitro; concentration: not given; reading: higher = stronger binding
# Target: Protein max, full length (MAX, Homo sapiens, UniProt P61244-2, residues 1-151)
# Setting: k-mer, scored over probes, only values ≥0.25
Oligonucleotide,E-score
GACACGCC,0.364
AGGCGTGG,0.373
GCGTGCAA,0.409
ACATGCGC,0.442
ATGCGACA,0.3
GCCATGTA,0.265
ACTGCACG,0.325
CGATCACG,0.344

# Study 4 — SMILES: COc1cc2ncc(-c3ccccc3)nc2cc1OC; read-out: enzyme activity; mode: inhibitor; concentration: 0.5 µM; baseline: control
target,remaining activity [%]
"Rho-associated protein kinase 2 (ROCK2, Homo sapiens, UniProt O75116)",96.1
"Aurora kinase A (AURKA, Homo sapiens, UniProt O14965)",90.3
"Proto-oncogene tyrosine-protein kinase ROS (ROS1, Homo sapiens, UniProt P08922)",100
"Cyclin-dependent kinase 7 (CDK7, Homo sapiens, UniProt P50613)",109
"Serine/threonine-protein kinase D1 (PRKD1, Homo sapiens, UniProt Q15139)",93.3
"Mitogen-activated protein kinase kinase kinase 8 (MAP3K8, Homo sapiens, UniProt P41279)",108
"Epidermal growth factor receptor (EGFR, Homo sapiens, UniProt P00533)",82.9
"Casein kinase II subunit alpha' (CSNK2A2, Homo sapiens, UniProt P19784)",98.3
"Serine/threonine-protein kinase N2 (PKN2, Homo sapiens, UniProt Q16513)",88.3
"Myotonin-protein kinase (DMPK, Homo sapiens, UniProt Q09013)",103
"Calcium/calmodulin-dependent protein kinase type 1G (CAMK1G, Homo sapiens, UniProt Q96NX5)",95.1
"Mitogen-activated protein kinase 10 (MAPK10, Homo sapiens, UniProt P53779)",90.3
"NT-3 growth factor receptor (NTRK3, Homo sapiens, UniProt Q16288)",89.1
"Homeodomain-interacting protein kinase 3 (HIPK3, Homo sapiens, UniProt Q9H422)",97.7
"Dual specificity tyrosine-phosphorylation-regulated kinase 4 (DYRK4, Homo sapiens, UniProt Q9NR20)",112
"Cyclin-dependent kinase 2, with cyclin A (CDK2, Homo sapiens, UniProt P24941)",92.9
"Serine/threonine-protein kinase BRSK1 (BRSK1, Homo sapiens, UniProt Q8TDC3)",102
"G protein-coupled receptor kinase 5 (GRK5, Homo sapiens, UniProt P34947)",106
"Protein-tyrosine kinase 2-beta (PTK2B, Homo sapiens, UniProt Q14289)",85.9
"STE20-like serine/threonine-protein kinase (SLK, Homo sapiens, UniProt Q9H2G2)",97.3
"Proto-oncogene tyrosine-protein kinase receptor Ret (RET, Homo sapiens, UniProt P07949)",84.4
"Mitogen-activated protein kinase kinase kinase 2 (MAP3K2, Homo sapiens, UniProt Q9Y2U5)",92.5

# Study 5 — cell line: normal-adjacent organoid sample F; technique: CellTiter-Glo; concentration: 1 µM; setting: replicate mean; baseline: DMSO
SMILES,viability
N#CC1(c2ccccn2)CCN(Cc2cc(C(=O)N3CCCC3)c(=O)n3ccccc23)CC1,110%
CN(C)[C@H]1CCN(c2cc(-c3ccccc3)nc3ccnn23)C1,118%
COc1cc(-c2cn(C3CCc4c(F)cccc4N(CC(F)(F)F)C3=O)nn2)ccc1-n1cnc(C)c1 (stereo not shown),108%

# Some of these lines once more (study 4):
target,remaining activity [%]
"Serine/threonine-protein kinase BRSK1 (BRSK1, Homo sapiens, UniProt Q8TDC3)",102
"G protein-coupled receptor kinase 5 (GRK5, Homo sapiens, UniProt P34947)",106
"Protein-tyrosine kinase 2-beta (PTK2B, Homo sapiens, UniProt Q14289)",85.9
"STE20-like serine/threonine-protein kinase (SLK, Homo sapiens, UniProt Q9H2G2)",97.3
"Proto-oncogene tyrosine-protein kinase receptor Ret (RET, Homo sapiens, UniProt P07949)",84.4
